Published values pooled from the literature.
Each numbered part is a random draw from the data of one study; scales do not carry over between parts.

Block 1
Target: RNA binding protein fox-1 homolog 2, RRM domain, GST-SBP tag (RBFOX2, Homo sapiens, UniProt O43251-10, residues 100-194)
Method: RNA Bind-n-Seq
Form: RNA
Sample: in vitro
Tested at: 365 nM
Notes: natural RNA segment, single round, ends assumed
Baseline: no-protein control
Direction: higher = stronger binding
Construct (chain): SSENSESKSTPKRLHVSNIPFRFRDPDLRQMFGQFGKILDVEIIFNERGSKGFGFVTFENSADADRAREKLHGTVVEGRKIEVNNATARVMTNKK
Under “RBNS enrichment (R)”, `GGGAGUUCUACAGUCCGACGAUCGUAUUACAGAUGCCUUUUUUGUAGUUUUUUUUUUUUUUAUGUGAUCAAUUUUGACUUAAUGUGAUUACUGCUCUAUUCCAAAAAGGUUGCUGUUUCACAAUACCUCAUGCUGGAAUUCUCGGGUGCCAA` is recorded as 0.863.
`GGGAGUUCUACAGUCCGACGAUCGGCCAGCUCUCGUCUGCUCUCGCCUUUAUCCUUCUCGGCUGCUGCUCUUCCUCUCCAGAGCCUUGGGAGAAGGACUUUCCCCGGUUGUACUUAAUUGAUUGGUUGUCCCAUGGAAUUCUCGGGUGCCAA` — result for “RBNS enrichment (R)”: 1.29.
`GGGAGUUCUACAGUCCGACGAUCUGCUUCACUCCUGGCUCUGUUCAGGGAGGCUGCCCAGGAGGAAGACUGGCCAUUAUGCAUCCCCUUUUCUUUCCAGUGCCCAGUAUGCUGUUUUGAGGUGUCAAAUACAAUGGAAUUCUCGGGUGCCAA` — result for “RBNS enrichment (R)”: 2.4.
Under “RBNS enrichment (R)”, `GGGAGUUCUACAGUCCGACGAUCAAAAAAGAAAAGGGUUUCCUAUCUGGUAUUAUAUAUGUCAAAUAAAUGUAUAAAGUAACACCCAAAUGUUAUUAGAAACUAGUCUUUUAGUAUUUGUAAUUUUCAACUCUUGGAAUUCUCGGGUGCCAA` is recorded as 0.443.
Under “RBNS enrichment (R)”, `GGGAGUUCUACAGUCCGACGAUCAUGUGUUUGUCUCUGCUGCUUGACCUCAUGGGAUGUACCCUCCAGUUCAACUGCCCAAAACAGACAGCCCCUUCCAAGCACCGUUCUUUGACAGCGGUAGCAGCUACCUAUGGAAUUCUCGGGUGCCAA` is recorded as 0.364.
`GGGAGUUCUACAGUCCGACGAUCCUGGAAUAGCUGACUACCCAGGGAGCCACCCAGAUGGGGAAUCCAGCUUCCUUCUUCACCCGCCCCCUCCAGGGUUAUUAAGCAUUUUUUUUUUCUUUUCUGCAAACCUUUGGAAUUCUCGGGUGCCAA` — result for “RBNS enrichment (R)”: 0.851.
`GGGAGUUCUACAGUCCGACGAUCCUCCUGUGGCCUUGGGCAGAACAGUAAAUACUCUGUGCACGGAGGAAAGACAUGCCCAAGAGGAAGGAAGUACUGACCAUCGGCUGCCUGUGAGCAGCUUAGCAAGGAGCUGGAAUUCUCGGGUGCCAA`: “RBNS enrichment (R)” 0.51.
`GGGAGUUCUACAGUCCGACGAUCACCUGUUACUGGACAUGUCUUAUUAAAUGGGUUGCUGUAUUAGGAUUAUAAACAUUUUUCAUUAUUGGAAAGUGUGAAGGGGACCUUCUGCAUACCUGUUUAGAACCAAAUGGAAUUCUCGGGUGCCAA`: “RBNS enrichment (R)” 0.268.
For `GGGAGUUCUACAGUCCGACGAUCCUUUUUUUAAUUGUUAAAUUGAAUUUUAUACCAAUGUUUAAACUUAAAUUGGGUGUUAGCUUGAGGUGUUUUGGGGGAGUUUGUUGUAAUGGUUUUGCUGUAAACUGUGUUGGAAUUCUCGGGUGCCAA`, “RBNS enrichment (R)” read 0.782.

Block 2
Target: Interferon regulatory factor 7, full length, phosphomimetic (IRF7, Homo sapiens, UniProt Q92985, residues 1-503, S101K/S471D/S472D/S475D/S476D/S477D/S483D/S484D/S487D)
Chain of UniProt Q92985 (whole entry, unmodified, looked up): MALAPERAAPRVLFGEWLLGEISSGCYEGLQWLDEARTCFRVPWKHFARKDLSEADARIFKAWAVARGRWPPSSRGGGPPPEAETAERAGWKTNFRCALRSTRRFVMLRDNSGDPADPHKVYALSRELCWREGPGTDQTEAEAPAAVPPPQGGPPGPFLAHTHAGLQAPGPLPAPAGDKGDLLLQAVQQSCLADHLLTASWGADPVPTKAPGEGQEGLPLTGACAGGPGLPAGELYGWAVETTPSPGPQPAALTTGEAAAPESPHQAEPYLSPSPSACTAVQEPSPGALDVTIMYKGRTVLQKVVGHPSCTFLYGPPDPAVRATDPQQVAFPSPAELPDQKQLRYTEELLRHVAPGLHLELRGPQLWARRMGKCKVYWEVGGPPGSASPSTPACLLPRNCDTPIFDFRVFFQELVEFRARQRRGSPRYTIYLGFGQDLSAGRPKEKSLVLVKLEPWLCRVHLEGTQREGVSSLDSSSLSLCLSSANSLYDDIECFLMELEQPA
Method: protein-binding microarray
Form: double-stranded DNA, one strand shown
Sample: in vitro
Tested at: 250 nM
Notes: 60-bp whole probe
With: salmon DNA 0.4 mg/ml
Baseline: random background probes
Direction: higher = stronger binding
Shared flanks, not repeated: GCCTAGCAC … GTCTTGATTCGCTTGACGCTGCTG
`GACGGACTGGACACTGGCGACGTGCTA` has a log fluorescence of -0.944 z-score.
`GACGGATTCGGTTTCGGGACGTGCTAG` gave a log fluorescence of 8.73 z-score.
For `TCAGAAATTCCTCTGAGACTGTGCTAG`, the log fluorescence was -0.285 z-score.
With `GTCGAACTGAGACTGGAGACGTGCTAG` the log fluorescence was 0.129 z-score.
For `CGCCCTCTCAACCATCCTGGGGTGCTA`, the log fluorescence was 0.25 z-score.
`TTAGATTCAAGTTTCGATTAGTGCTAG` gave a log fluorescence of 9.46 z-score.
The log fluorescence of `GACGAACTGGGGACTCGAGACGTGCTA` is reported as -0.00146 z-score.
For `TTAAGTTTCGACTATCGGTTAGTGCTA`, the log fluorescence was 6.13 z-score.
`TACGGTATCGGTTTCGGGACGTGCTAG` has a log fluorescence of 6.93 z-score.
`GATGGTATTTGCCTGTGGTCGTGCTAG` gave a log fluorescence of -0.681 z-score.
With `GACGAACTGCGGTTTCGAGACGTGCTA` the log fluorescence was 3.24 z-score.
For `AAATCTAAAAAGTCTCTGGGAGTGCTA`, the log fluorescence was -0.152 z-score.
`GAGGGTTTCGGTTCCGGGACGTGCTAG` gave a log fluorescence of 11.1 z-score.
`GGCGGTTTCGGTTCCGGGACGTGCTAG` has a log fluorescence of 12 z-score.
For `GACGATTTCAGTTTCGAGTCGTGCTAG`, the log fluorescence was 8.65 z-score.
`TAAGGTATAAACTTGGGAAAGTGCTAG` gave a log fluorescence of -0.0121 z-score.
`GACGATATCAGTCTCAAGACGTGCTAG` gave a log fluorescence of -0.065 z-score.
For `TCAATGTTCCCTATATAACTGTGCTAG`, the log fluorescence was 1.45 z-score.
For `TCAGTTCTCCCTTTCAGACTGTGCTAG`, the log fluorescence was 1.4 z-score.
With `TCATGGTTCCCATTCCAACTGTGCTAG` the log fluorescence was 1.26 z-score.
With `TTAGGTTTCGACTATTGGTTAGTGCTA` the log fluorescence was 4.62 z-score.
`TCATGTATGAGCCTCTGACTGTGCTAG` has a log fluorescence of -0.336 z-score.
`TTAGGTCACGGTCTCGGTTAGTGCTAG` has a log fluorescence of 1.69 z-score.
`TTAGCTATCAGACTGGATTAGTGCTAG` has a log fluorescence of -0.413 z-score.

Block 3
Target: PABPC1L2, full length, GST fusion (mouse, UniProt A0ABA7IW68)
Method: RNAcompete
Form: RNA
Sample: in vitro
Tested at: 20 nM
Notes: 7-mer, probes averaged, single round
Baseline: mean of 7-mers
Direction: higher = stronger binding
Construct (chain): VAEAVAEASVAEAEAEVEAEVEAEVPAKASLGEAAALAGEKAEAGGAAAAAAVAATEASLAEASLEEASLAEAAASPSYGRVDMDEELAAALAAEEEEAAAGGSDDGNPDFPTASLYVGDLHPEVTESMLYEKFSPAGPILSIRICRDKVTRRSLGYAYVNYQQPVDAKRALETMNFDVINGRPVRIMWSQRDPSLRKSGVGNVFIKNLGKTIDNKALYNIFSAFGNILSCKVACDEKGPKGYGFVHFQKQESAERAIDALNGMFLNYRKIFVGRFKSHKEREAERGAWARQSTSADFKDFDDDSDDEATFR
`UGAGCAA` gave a 7-mer Z-score of 0.0334.
`UGUCAAC` gave a 7-mer Z-score of -0.318.
`GGGACCC` gave a 7-mer Z-score of -0.186.
With `AAAUCUG` the 7-mer Z-score was 1.1.
With `AACACGU` the 7-mer Z-score was 0.311.
For `CAUGUAG`, the 7-mer Z-score was -0.0482.
With `GAUACGU` the 7-mer Z-score was -0.251.
`UUAGUCG` has a 7-mer Z-score of -0.354.
`AGUAGUC` has a 7-mer Z-score of -0.197.
The 7-mer Z-score of `UGCAUUA` is reported as -0.0826.
With `GGCUCCC` the 7-mer Z-score was -0.197.
The 7-mer Z-score of `GCGUGCU` is reported as -0.17.
For `CAUAUCG`, the 7-mer Z-score was -0.162.
The 7-mer Z-score of `CGCGGGG` is reported as 0.294.
`CGUACCC` gave a 7-mer Z-score of -0.349.
With `ACCUGUU` the 7-mer Z-score was -0.458.
The 7-mer Z-score of `CAUGUUA` is reported as -0.224.
The 7-mer Z-score of `CGCCUUU` is reported as -0.282.
`UAACACU` gave a 7-mer Z-score of -0.2.
The 7-mer Z-score of `CACAUCG` is reported as -0.00833.
The 7-mer Z-score of `CUUCACC` is reported as -0.306.
With `AAGUUCU` the 7-mer Z-score was -0.103.
With `CUCGAAA` the 7-mer Z-score was 0.222.
The 7-mer Z-score of `UGUUGAC` is reported as -0.253.

Block 4
Target: Centromere-binding protein 1, full length, N-terminal tag (CBF1, Saccharomyces cerevisiae, UniProt P17106, residues 1-351)
Chain of UniProt P17106 (whole entry, looked up): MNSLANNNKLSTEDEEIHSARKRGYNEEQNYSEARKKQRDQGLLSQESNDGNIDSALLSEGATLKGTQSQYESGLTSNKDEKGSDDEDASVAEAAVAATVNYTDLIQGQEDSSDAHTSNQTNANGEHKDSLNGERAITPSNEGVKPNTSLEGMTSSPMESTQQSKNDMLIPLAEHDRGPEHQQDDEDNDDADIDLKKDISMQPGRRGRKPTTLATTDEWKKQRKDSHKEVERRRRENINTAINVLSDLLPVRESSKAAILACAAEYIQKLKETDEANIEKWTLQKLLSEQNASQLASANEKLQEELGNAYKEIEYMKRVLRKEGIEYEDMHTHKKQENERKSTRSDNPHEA
Method: protein-binding microarray
Form: double-stranded DNA, one strand shown
Sample: in vitro
Tested at: 0.8 µM
Notes: whole 60-bp probe, no competitor
Direction: higher = stronger binding
The fluorescence intensity of `CTAAGACCTGTCCGTGATGTCGAGGACACGATATTCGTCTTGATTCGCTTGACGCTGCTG` is reported as 546 a.u.
For `GAAGACACACAATAGCATGTGCGACGAGACACCTAGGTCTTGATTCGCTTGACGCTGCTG`, the fluorescence intensity was 544 a.u.
The fluorescence intensity of `CTATAAGTAATGATTTACGTGCCATTTTTTTTATTCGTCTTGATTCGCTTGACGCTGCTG` is reported as 507 a.u.
With `GAATCAGACAGTTCTGTCGTGATGGGAGAACTGTAGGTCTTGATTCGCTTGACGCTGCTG` the fluorescence intensity was 506 a.u.
With `CTATATAAGTTTTTTCACGTTTTTGATTTTTCCTTCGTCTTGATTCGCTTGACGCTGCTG` the fluorescence intensity was 628 a.u.
`CTAGTATTTTTTGCGAACGTGGAAGTATTTCACTTCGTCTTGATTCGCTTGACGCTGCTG` gave a fluorescence intensity of 617 a.u.
`CTAGCTCTCTAAGTTCGTGTGCAAGCTGATTATTTCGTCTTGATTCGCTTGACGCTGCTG` has a fluorescence intensity of 504 a.u.
`CTACGAGCCAAGTGACACCAGCAAACAAGGAAATTCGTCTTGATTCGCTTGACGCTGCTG` gave a fluorescence intensity of 558 a.u.
For `GAAAGTTATGACATTCACACCACTTTAGAATTTTAGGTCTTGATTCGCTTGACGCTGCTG`, the fluorescence intensity was 536 a.u.
With `CTACCCCACTTCCATCACGTCCATACCAGGTGCTTCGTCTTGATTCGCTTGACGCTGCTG` the fluorescence intensity was 551 a.u.
`GAAAATTTAAGAAGTTGCGTGGCAATAGGTGGCTAGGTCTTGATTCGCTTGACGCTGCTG` has a fluorescence intensity of 538 a.u.
For `CTATACTGGGTAAAATTCACCACGTTATCTTCTTTCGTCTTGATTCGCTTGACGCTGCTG`, the fluorescence intensity was 896 a.u.
`CTAATCAAAACAAATCGTGTCACTCATTAAACATTCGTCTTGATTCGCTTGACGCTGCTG` has a fluorescence intensity of 515 a.u.
The fluorescence intensity of `CTAAAAAATATCGTCGACGTGTCATGTGATCAATTCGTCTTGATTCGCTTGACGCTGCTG` is reported as 10100 a.u.
`CTAGAACTCCGCCATCATGTGCTCAAGACTAGATTCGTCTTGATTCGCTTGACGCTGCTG` has a fluorescence intensity of 1120 a.u.
`GAATATAAAATATACCATGTGGTTTGAGTTGTGTAGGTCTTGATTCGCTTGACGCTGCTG` has a fluorescence intensity of 848 a.u.
`TGTACGAAGCTATTACACGTGACTATAGTAGTTAGGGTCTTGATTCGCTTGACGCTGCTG` has a fluorescence intensity of 14800 a.u.

For quick reference, copied from above (block 3):
For `CAUAUCG`, the 7-mer Z-score was -0.162.
The 7-mer Z-score of `CGCGGGG` is reported as 0.294.
`CGUACCC` gave a 7-mer Z-score of -0.349.
With `ACCUGUU` the 7-mer Z-score was -0.458.
